Experimental data from different studies.
A part holds a random share of what one study measured. Numbers after ± are the reported error. In brackets after ≈: the same amount, converted by molar mass.

Block 1
Organism: SARS-CoV-2 Wuhan spike VSV pseudovirus
Read-out: pseudovirus entry
Tested at: concentration not given
Endpoint: inhibition
CCOC(=O)N1CCN(C(=O)CCc2nnc(CCCc3ccccc3)o2)CC1: 40%
CCS(=O)(=O)N1CSC[C@@H]1C(=O)NCCc1csc(-c2ccccc2)n1: 39%
COC(=O)c1cc(CN2CCN(c3ncnc4ccccc34)CC2)cs1: 38%
CC(C)c1cc(C(=O)NCc2noc(-c3cccs3)n2)n(C)n1: 40%
Cn1ccc2ccn(CC(=O)Nc3cccc(Br)c3)c(=O)c21: 40%
CCc1nc(=O)c(-c2ccccc2)c(C)n1-c1ccccc1: 49%
CCOC(=O)C1CCN(S(=O)(=O)c2ccc3c(c2)N(C(C)=O)CCCS3)CC1: 36%
Cc1csc(NC(=O)C2CCN(S(=O)(=O)c3cc(C(=O)N4CCCCCC4)cs3)CC2)n1: 38%
Cc1onc(-c2c(Cl)cccc2Cl)c1C(=O)On1c(-c2ccccc2)nc2ccccc2c1=O: 44%
CCOC(=O)c1nc(N2CCC(c3ccccc3)C2)c2ccccc2n1 (centres unmarked): 47%
Cc1ccc(NC(=O)c2nc(S(=O)(=O)Cc3ccccc3)ncc2Cl)cc1C: 41%
CCOC(=O)c1c(-c2ccc(N(C)C)cc2)n(C)c2cc(-c3cccnc3)c(O)cc12: 51%
CCC1Oc2ccc(S(=O)(=O)N3CCN(C(=O)c4ccc(C#N)cc4F)CC3)cc2NC1=O (centres unmarked): 42%
O=C1CN(c2ncnc3sc4c(c23)CCCCC4)CCN1: 37%
ClC1(Cl)CC1CNc1ncnc2sc3c(c12)CCC3 (centres unmarked): 42%
CN1CCN(Cc2c(O)c(Cl)cc3c4c(c(=O)oc23)CCC4)CC1: 53%

Other studies, line by line
rep nsp14: Replicase polyprotein 1ab, nsp14 (rep, Severe acute respiratory syndrome coronavirus 2, UniProt P0DTD1)
rep papain-like protease: Replicase polyprotein 1ab, papain-like protease (rep, Severe acute respiratory syndrome coronavirus 2, UniProt P0DTD1)
rep nsp12 RdRp: Replicase polyprotein 1ab, nsp12 RdRp (rep, Severe acute respiratory syndrome coronavirus 2, UniProt P0DTD1)
Matrix protein 2 V27A: Matrix protein 2 (Influenza A virus, UniProt P0DOF5, V27A)
Cc1ccc(NS(=O)(=O)c2cccc(C(=O)NC3CCN(c4ncnc5[nH]cnc45)CC3)c2)cc1
inhibition (rep nsp14; 0.01221 µM): -1.64%

CC(C)C(=O)OC[C@H]1O[C@@H](n2ccc(NO)nc2=O)[C@H](O)[C@@H]1O
IC100 (SARS-CoV-2; cytopathic effect; Vero C1008, Omicron BA.1; 48 h): 6.24 µM

SLVAVTAAQSTIEEQAKTFLDKFA
relative binding (SARS-CoV-2 spike RBD; peptide spot array; peptide; concentration not given; relative to: wild-type ACE2 peptide): 3.37

COc1ccc2c(O[C@@H]3C[C@H]4C(=O)N[C@]5(C(=O)NS(=O)(=O)C6CC6)C[C@H]5/C=C\CCCCN(C)C(=O)[C@@H]4C3)cc(-c3nc(C(C)C)cs3)nc2c1C
activity (rep papain-like protease; concentration not given, C111S mutant; relative to: positive control): 15%

O=C(NC1CCN(c2ncnc3[nH]cnc23)CC1)c1cccc(S(=O)(=O)N2CCCC2)c1
inhibition (rep nsp14; NSP14 enzyme activity, inhibitor; 200 µM): 85.1%

CCC(CC)[C@H](NC(C)=O)[C@@H]1[C@H](O)[C@@H](C(=O)O)C[C@H]1N=C(N)N
IC50 (neuraminidase (Influenza B virus, UniProt C0LT34, H273Y)): 29 ± 2.8 nM

CC(C)CC(=O)Nc1cncc(-c2ccc3[nH]nc(-c4nc5c(-c6cccc(F)c6)cncc5[nH]4)c3c2)c1
BLI response (rep nsp12 RdRp; binding, biolayer interferometry; concentration not given): 0.01 nm

CCCCCCC#Cc1cncc(-c2nnc(SCc3cc([N+](=O)[O-])cc([N+](=O)[O-])c3)n2C)c1
MIC80 (Mycobacterium tuberculosis; H37Rv mc2-6206 MmpL3 G253E): 2.2 µM (≈ 1.06 µg/mL)

Cl.NC12C3CCC4C3C3C(CCC31)C42
inhibition (Matrix protein 2 V27A; concentration not given, pH 5.5, cell-based): 0%

SLVAVTAAQSTIEEQAKHFLDKFN
relative binding (SARS-CoV-2 spike RBD; peptide spot array; peptide; concentration not given; relative to: wild-type ACE2 peptide): 3.01

CN1CCc2nc(C(=O)N[C@@H]3C[C@@H](C(=O)N(C)C)CC[C@@H]3NC(=O)C(=O)Nc3ccc(Cl)cn3)sc2C1
activity (rep papain-like protease; concentration not given, C111S mutant; relative to: positive control): 22.4%

N=C(N)NCC12CC3CC(CC1C3)C2
inhibition (Matrix protein 2 V27A; concentration not given, pH 5.5, cell-based): 0%

N#C[C@@]1(n2ccc(N)nc2=O)O[C@H](CO)[C@@H](O)[C@H]1O
EC50 (SARS-CoV-2; viral replication; Calu-3, Gamma): 200 ± 100 nM

CC(C)=CCNc1ncnc2c1ncn2[C@@H]1O[C@H](CO)[C@@H](O)[C@H]1O
IC100 (SARS-CoV-2; cytopathic effect; Vero C1008, Omicron BA.1; 48 h): 1.08 µM

C[C@@H]1O[C@@H](OC[C@H]2O[C@@H](Oc3cc(O)c4c(c3)O[C@H](c3ccc(O)cc3)CC4=O)[C@H](O)[C@@H](O)[C@@H]2O)[C@H](O)[C@H](O)[C@H]1O
BLI response (rep nsp12 RdRp; binding, biolayer interferometry; 50 µM): 0.06 nm

CCC(CC)COC(=O)[C@H](C)N[P@](=O)(OC[C@H]1O[C@@](C#N)(c2ccc3c(N)ncnn23)[C@H](O)[C@@H]1O)Oc1ccccc1
EC90 (SARS-CoV-2 Omicron; viral replication; Calu-3): 400 ± 100 nM

Excerpt of the above (block 1):
CCS(=O)(=O)N1CSC[C@@H]1C(=O)NCCc1csc(-c2ccccc2)n1: 39%
COC(=O)c1cc(CN2CCN(c3ncnc4ccccc34)CC2)cs1: 38%
CCC1Oc2ccc(S(=O)(=O)N3CCN(C(=O)c4ccc(C#N)cc4F)CC3)cc2NC1=O (centres unmarked): 42%
